Measurements collected from several papers.
Every numbered part comes from another study and shows a few of its results, in no order.

Series 1
Target: Sal-like protein 4, full length isoform B (SALL4, Homo sapiens, UniProt Q9UJQ4-2, residues 1-616)
Technique: universal PBM
Molecule type: double-stranded DNA, one strand shown
Medium: in vitro
Concentration: not given
Setting: 8-mer, flanks averaged, mean of replicates
Direction: higher = stronger binding
For `ATTACGGC`, the E-score was 0.0365.
The E-score of `ATCGATGG` is reported as 0.0699.
For `ACTTGATC`, the E-score was 0.128.
For `CACCTAGC`, the E-score was -0.191.

Series 2
Target: Transcription factor Sp1 (SP1, Homo sapiens, UniProt P08047, residues 1-785, full length assumed)
Sequence of UniProt P08047 (whole entry, looked up): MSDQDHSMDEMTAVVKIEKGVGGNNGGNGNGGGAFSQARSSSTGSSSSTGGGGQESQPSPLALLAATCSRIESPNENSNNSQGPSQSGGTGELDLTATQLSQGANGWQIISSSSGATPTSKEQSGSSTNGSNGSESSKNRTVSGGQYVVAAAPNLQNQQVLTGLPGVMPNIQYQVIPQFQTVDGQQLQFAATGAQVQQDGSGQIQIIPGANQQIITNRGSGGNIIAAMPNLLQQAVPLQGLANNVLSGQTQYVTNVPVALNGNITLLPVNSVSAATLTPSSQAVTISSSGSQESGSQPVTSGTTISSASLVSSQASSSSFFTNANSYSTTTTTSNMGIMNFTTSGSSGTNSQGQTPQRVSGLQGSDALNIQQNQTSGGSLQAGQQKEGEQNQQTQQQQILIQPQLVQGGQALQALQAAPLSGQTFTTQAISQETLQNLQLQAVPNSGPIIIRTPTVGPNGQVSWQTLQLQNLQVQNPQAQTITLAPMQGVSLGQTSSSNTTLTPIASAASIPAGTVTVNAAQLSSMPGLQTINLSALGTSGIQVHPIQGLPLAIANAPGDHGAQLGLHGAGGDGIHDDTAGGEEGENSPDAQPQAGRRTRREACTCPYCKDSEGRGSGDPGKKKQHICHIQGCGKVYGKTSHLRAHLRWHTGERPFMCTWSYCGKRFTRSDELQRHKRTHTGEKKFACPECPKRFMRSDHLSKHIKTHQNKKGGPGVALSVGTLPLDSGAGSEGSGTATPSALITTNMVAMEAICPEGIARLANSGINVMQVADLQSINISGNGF
Technique: protein-binding microarray
Molecule type: double-stranded DNA, one strand shown
Medium: in vitro
Concentration: not given
Setting: k-mer, scored over probes, only values ≥0.25
Direction: higher = stronger binding
For `ATGATACA`, the E-score was 0.251.
For `AATCCCCA`, the E-score was 0.283.
`AACCCCAC` has an E-score of 0.35.
`AGAAATGG` has an E-score of 0.254.

Series 3
Target: Fragile X messenger ribonucleoprotein 1, C-terminal low-complexity region (Fmr1, Mus musculus, UniProt P35922)
Technique: RNA Bind-n-Seq
Molecule type: RNA
Medium: in vitro
Concentration: 200 nM
Setting: whole 134-nt RNA, ends assumed
Together with: 150 mM LiCl
Reference: input library
Direction: higher = stronger binding
Each molecule: 7-deaza-guanosine replaces G
The log2 enrichment of `GGGAGUUCUACAGUCCGACGAUCGGCAGGAGGAAGAGCGCAGGCGCCGUGAAGAAGAGAUGCGGCGGCAGCAAGAAGAAAUGAUGCGGCGACAGCAGGAAGGAUUCAAGGGAAUGGAAUUCUCGGGUGUCAAGG` is reported as 0.793.
The log2 enrichment of `GGGAGUUCUACAGUCCGACGAUCAGUCCUGUGCUACACAUCGUAUGUACCGAAUCGGAAAAAGGUUUUUUUGGAAAAAGGAAAGUAUUAUGUUACGCCGUUCGGAUCUGCACUUGGAAUUCUCGGGUGUCAAGG` is reported as -3.25.
With `GGGAGUUCUACAGUCCGACGAUCAAGUCCUGUGCUACACAUCGUAUGUACCGAAUCGGAAAAGGGGAAAAGGAAAAGGGAAAGUAUUAUGUUACGCCGUUCGGAUCUGCACUUUGGAAUUCUCGGGUGUCAAGG` the log2 enrichment was -0.565.

Other studies, line by line
The fold induction of `PhoQ, residues 284 288 289 292 302 303 QWGLFV` is reported as 1.36 (PhoP, residues 12 14 15 18 19 NNFVT (Escherichia coli, UniProt P23836); Sort-seq, measured: YFP reporter; E. coli; PhoQ-PhoP variant library, together with: 10 µM Mg2+; reference: high Mg2+ state, higher = stronger signaling).

Excerpt of the above (series 2):
For `AATCCCCA`, the E-score was 0.283.
